Results gathered from unrelated publications.
A part holds a random share of what one study measured. Substitutions count along the parent as printed.

Set 1
Target: PABPC1L2, full length, GST fusion (mouse, UniProt A0ABA7IW68)
Method: RNAcompete
Form: RNA
Medium: in vitro
Tested at: 20 nM
Setting: 7-mer, probes averaged, single round
Relative to: mean of 7-mers
Reading: higher = stronger binding
Measurement: 7-mer Z-score
Construct (chain): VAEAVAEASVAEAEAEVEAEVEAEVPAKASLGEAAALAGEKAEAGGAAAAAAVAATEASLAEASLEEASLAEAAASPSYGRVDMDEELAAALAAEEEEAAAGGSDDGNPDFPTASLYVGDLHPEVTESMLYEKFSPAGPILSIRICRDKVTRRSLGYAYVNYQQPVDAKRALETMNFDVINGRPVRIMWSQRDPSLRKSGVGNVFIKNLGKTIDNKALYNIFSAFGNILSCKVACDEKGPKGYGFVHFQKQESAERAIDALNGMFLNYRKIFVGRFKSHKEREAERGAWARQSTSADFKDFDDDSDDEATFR
AAAAAGC: 15.6
UAAGUUU: -0.306
GGUCUGG: 0.137
UCAAUGC: -0.32
UCGCAAA: 0.486
UACGGGA: 0.119
GCACUUU: -0.132
UCCUCGU: -0.434
GCGAGGU: 0.108
GAAAGAU: 1.06
UUCGCAG: -0.269
ACCCUGG: -0.306
AGGCAUG: 0.128
UCAGGAG: 0.162
AACGGUG: 0.128
UUUCGAA: -0.224
GUCAGUA: -0.128
UUCCUCG: -0.396
ACCAAAA: 6.48
CCCCACU: -0.311

Set 2
Target: CCNE1, cyclin fold, Cln2 fusion (human)
Method: yeast growth competition, sequencing
Medium: yeast
Setting: strong parent motif
Relative to: not given
Reading: higher = stronger binding
Measurement: normalised enrichment score
Starting sequence: E2F1 docking peptide (human); PPVKRRLDFETDH
R6Q: 5.94
F9M: 2.71
V3P: 3.17
K4I: 5.19
R6I: 5.99
F9W: 3.45
D8S: 5.59
R5M: 0.699
F9R: 0.274
D12E: 6.29
R6E: 3.09
D8V: 4.98
R5I: 0.723
F9D: -0.0399
F9N: 0.277
E10A: 6.28
E10G: 6.66
E10I: 5.98
F9I: 0.898
K4M: 4.99
K4H: 2.91
V3Q: 1.32
T11K: 5.65
D12N: 6.48
V3S: 2.5

Set 3
Target: RNA binding protein fox-1 homolog 2, RRM domain, GST-SBP tag (RBFOX2, Homo sapiens, UniProt O43251-10, residues 100-194)
Method: RNA Bind-n-Seq
Form: RNA
Medium: in vitro
Tested at: 365 nM
Setting: natural RNA segment, single round, ends assumed
Relative to: no-protein control
Reading: higher = stronger binding
Measurement: RBNS enrichment (R)
Construct (chain): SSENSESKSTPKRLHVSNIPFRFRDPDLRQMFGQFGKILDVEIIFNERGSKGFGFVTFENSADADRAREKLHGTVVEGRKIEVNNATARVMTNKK
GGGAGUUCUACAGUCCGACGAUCCCCAGCACGCUGCUGGCAGAGAUGGUUUGAGAACACAUCCAAGCCAGUCCCCCCAGCCCAGCUUCCCCUCCGUUCCUAACUGUUGGCUUUCCCCCAGCCGCACGGGUCCCUGGAAUUCUCGGGUGCCAA: 2.24
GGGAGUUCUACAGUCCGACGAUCUCUUCUCAUCUCCCAAACCCCCUGAGCCCGUAGGGUUUUCAUAGUGGACAAAGAACUUGUGGUCUUUUAAAACUGGGACUGAUACUUUUUUGAGAGAGUAUCGUGUCGAAUGGAAUUCUCGGGUGCCAA: 0.365
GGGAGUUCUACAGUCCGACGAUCAGCUCGGCCCCACCCAGAGGGCCUGGCCAGCUGCUCCCAAGCCACCCAGGGAGGCAGCAGACAGGUGGGAGCUCCUGGGGCACGGCCGUGGGAUUGCUUCCACCAGUGUGUGGAAUUCUCGGGUGCCAA: 0.241
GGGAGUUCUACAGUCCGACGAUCGCUAGGCUGAACUGUAUGUUACUGUUUUCAUGCUUAUACAUAUAUUUUCAAUCACAUACAAGUACAUAGAAUUUCACAUUUUAAUUUAGCAAAUUGAUUUACCUAGGAAAUGGAAUUCUCGGGUGCCAA: 0.489
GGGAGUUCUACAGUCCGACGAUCAACAUAACCUUAUGCUGCCCUUGGCUUGGCCACAUUUGUUAAAUCCUUAUUAUAUUGAUACUCUUCUUGAGGAGGAAAUCUCACCUUUUCUUUUUCAAGAGAUUCUGAGGUGGAAUUCUCGGGUGCCAA: 0.383
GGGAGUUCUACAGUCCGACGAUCUUGCUUUCUUCUCUUGCCUCUGAGAACAUCAGCCUGGAGGCCUGUCAGGCUACGGGCUGCCUGAGUGGAAACCUGGGAUGGUGGAGAAUUCCCAAGCCACAGCCCUUUUGUGGAAUUCUCGGGUGCCAA: 0.341
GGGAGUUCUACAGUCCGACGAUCUGGAAGCAUACCCCAAGACCCCAAGCCUUGACUCCAGCUGCGCCCACAGGAAGUCCAGUCCCGACAGUGCCCUUGUUGCCUUUGAGCCAGAUCCAUGGCAAUGGUCUCCCUGGAAUUCUCGGGUGCCAA: 0.636
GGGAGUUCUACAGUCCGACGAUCUCUAGGCACUACAUAUGUAAUUGGUAAAGAAAAGGCAUUUUCUUAAGAGUUAUAACUAUGUAAACAUUGUAUAAUGAUAUGAAAUAAAACGCACAUUUAGGACAUUUUCUUGGAAUUCUCGGGUGCCAA: 0.445
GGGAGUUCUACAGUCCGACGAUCCGUCCUCGGCCCCCCACCCUGAAGUGCCAGCACCACCAGCACCAGAUCCUCCGCCGCCACACCGCACUGAGGACACGCCGGCCGGGCCGCCUCGUCUCAAGUUGUAUAAAUGGAAUUCUCGGGUGCCAA: 0.685
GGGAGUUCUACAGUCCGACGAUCCGAUGACACCACUGAAUGUUUAGGUGGGCUAGCAUUAGCGACCCUUGUUGGCCACUUUUCAGUCCUGAGAUGAGGGCCUGAGCCAGUCUUCUCUAGGGGUGGGAUGAGACUGGAAUUCUCGGGUGCCAA: 1.36
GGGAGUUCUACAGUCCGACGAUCUGGAGUCAGCUGCACACCAGUAGUAUGGCAUGCUACGAUCAGGUUCUGUCCUGAAAGCUUUGCCUCUUUCUUGGCAAAGUUUCUGGUAUGGUCAAGCUUGUAAAUAACUUUGGAAUUCUCGGGUGCCAA: 0.878
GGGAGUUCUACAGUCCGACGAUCUCAGGCCCCGGGCUCCCUGGCCACAAGCUUUUUCUAUCCUGUUUUCAUGACAGAGAAGGGGAAGCCCUGUUCUGACAACAGACAUUUCAGACAACCUUGCUGGCUUUCCAUGGAAUUCUCGGGUGCCAA: 0.478

Set 4
Target: RING finger protein unkempt homolog, zinc fingers 1-6, GST-SBP tag (UNK, Homo sapiens, UniProt Q9C0B0, residues 30-357)
Method: RNA Bind-n-Seq
Form: RNA
Medium: in vitro
Tested at: not given
Setting: RNA with constant flanks, human and mouse sites, ends assumed
Relative to: input RNA pool
Reading: higher = stronger binding
Measurement: bound/input enrichment
Construct (chain): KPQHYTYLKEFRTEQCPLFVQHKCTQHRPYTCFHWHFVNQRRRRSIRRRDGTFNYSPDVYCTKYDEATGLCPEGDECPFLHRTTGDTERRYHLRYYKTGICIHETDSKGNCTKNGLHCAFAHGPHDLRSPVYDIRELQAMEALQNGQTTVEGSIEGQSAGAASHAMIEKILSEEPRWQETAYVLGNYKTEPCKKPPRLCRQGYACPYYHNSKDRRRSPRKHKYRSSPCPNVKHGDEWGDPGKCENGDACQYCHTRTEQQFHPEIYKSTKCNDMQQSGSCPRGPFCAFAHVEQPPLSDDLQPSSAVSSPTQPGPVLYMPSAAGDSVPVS
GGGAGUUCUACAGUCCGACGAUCAUGUCCUUUCCUCUGGACAAUGUUGACAUAGGAUUCAGGAAUCAGGUUGAUGACAUUCGAAGCUUUUUGGAUUCCAGACAUCUUGACCACUACACAGUAUACAAUCUGUCACCUAAGUCUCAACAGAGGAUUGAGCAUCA: 0.0828 ratio
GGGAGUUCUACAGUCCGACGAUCUUUACUGUUUUGGGGAGCACAGCAAGAGAGAGAGCUAAACACUCAGGCGACUACUUUACUCUUUUAAGACACCUUCUUAAUUACGCUUACAAUAGUAAUAUUAAUGUACCCAAUGCUGAACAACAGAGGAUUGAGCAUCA: 1.2 ratio
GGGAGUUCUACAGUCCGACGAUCCUUACCACCUUGUCCCAGCAGCUAGAGAAUGAAAAUGCUGUGGAUGUGUUCCAGGUGGCAAAAAUGAUCAAUCUUAUGAGACCUGGAGUAUUCACAGACAUUGAACAAUACCAGUUUGUCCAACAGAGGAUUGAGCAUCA: 0.194 ratio
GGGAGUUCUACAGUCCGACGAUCGUGGCUAAGAUUCCCGCCGCUGCUGCCUCCCGGUGCUUCCCGGGGUGAUCUGUCACCAGGAGCAGUGUCGAAGACGCCGCUCACGGUGGGAACAUGAAUCUCCUACCUAAAAGCUCCAAGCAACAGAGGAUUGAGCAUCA: 0.104 ratio
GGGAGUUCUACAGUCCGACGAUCCCCACGCCCUCCCUCUCCCAGGCCCGAGAUGUGACCCACCAGUGCCUUCUGUCUGCUCGUUAGCUUUAAUCAAUCAUGCCCUGCCUUGUCCCUCUCACUCCCCAGCCCCACCCCUAAGUGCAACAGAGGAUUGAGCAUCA: 5.98 ratio
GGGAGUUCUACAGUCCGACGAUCACUAUCGUUCCUGGCUAUGAUUUCUUGGUGAAUUCUGUGUGGCCAGAAAUAGUUCGAGGCCUAGAGGAAAAGCUACCCUCGCUCUUCAACCCUGGGGACCCAGACGCCUUUCACCAGAAACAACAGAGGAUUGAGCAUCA: 0.193 ratio
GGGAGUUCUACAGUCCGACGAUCGUCCACAAAAUAUAUUAAAACUGAAAUUUUUGUUCUUUUAGCUUUCGAAUUUACACUUUUGAGAGCAGUGUGAUUCUUUCAAGUCUAGCAGUGCAUUAAGAGGGCCUGAGCGUUUCCGUUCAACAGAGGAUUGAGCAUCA: 0.762 ratio
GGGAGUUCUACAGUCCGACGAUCCCCUCGGCCCCCUCCCCCUCUAAGAUAAAUAAGAAAAUACUCAAAGCGAAAACCAAACUGCAUAAGCUUAACCCGCUGAUGAGUGGUUUUAUUUUGAAACUCGUUUUUUGGGUCCAGUCACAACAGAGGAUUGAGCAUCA: 0.563 ratio
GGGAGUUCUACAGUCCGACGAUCAAAAGUGCUGAGGAUGCUAAAGCUAUUUAUGACUUUACAGAUACUGUGAUACGGAUCAGAAACCGACACAAUGAUGUCAUUCCCACAAUGGCCCAGGGUGUGAUUGAAUACAAGGAGAGCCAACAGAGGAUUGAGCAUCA: 0.133 ratio
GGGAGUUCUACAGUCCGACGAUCAAUACAUCAUCAUCUUUGGAGAAUUUAGCGACGGCGCCUGUGAACCAGAUCCAAGAAACAAUUUCUGAUAAUUGUGUGGUGAUUUUCUCAAAAACAUCCUGUUCUUACUGUACAAUGGCACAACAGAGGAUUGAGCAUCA: 0.185 ratio
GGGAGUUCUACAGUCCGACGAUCCAGACAAAUAAACUAGUAGAUGAUGGAAAAAAGAAACCAAGAGCAAAACAAAAAACAAAUGAGAAAGGUACAUCGAGAAAGCAUACAACACUUAAGGAUGAAAAAAUAAAAUCUCAGUCUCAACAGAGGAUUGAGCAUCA: 0.668 ratio

For quick reference, copied from above (set 2):
E10A: 6.28
R5I: 0.723
D12N: 6.48
F9W: 3.45
R6E: 3.09
